Measurements collected from several papers.
Each line is one published result; not all experiments were run side by side. Values joined by “and” are separate records of one study, mostly repeats; a detail may differ. ± marks the error that the study gave.

`O=c1cc(-c2ccccc2)oc2c(Br)c(O)c(O)c(O)c12` — result for “time of secondary peak”: 6 h and 12 h (C57BL/6 mouse, plasma; po, 150 mg/kg, enterohepatic recirculation).
For `C[C@@H]1CCCN1CCc1cc2cc(C(=O)c3ccc([18F])cc3)ccc2o1`, “time of peak uptake” read ~47.5 min (rhesus monkey, frontal cortex; baseline).
The tissue uptake of `O=C(c1ccc(F)cc1)C1CCN(C2Cc3c(cccc3OCC[18F])CC2O)CC1` (single isomer, unassigned; (-)) is reported as 0.382 ± 0.029 %ID/g (Sprague-Dawley rat, male, liver; intravenous, dose not given, 120 min).
`CC(C)C[C@H](NC(=O)[C@H](CCCCN)NC(=O)[C@H](CCC(=O)O)NC(=O)[C@H](C)NC(=O)[C@@H](NC(=O)[C@H](CCCCN)NC(=O)[C@H](CC(=O)O)NC(=O)[C@H](Cc1ccc(O)cc1)NC(=O)[C@H](Cc1ccccc1)NC(=O)[C@H](C)NC(=O)[C@H](CCCCN)NC(=O)[C@H](CC(C)C)NC(=O)[C@H](Cc1c[nH]c2ccccc12)NC(=O)[C@@H](N)CC(=O)O)C(C)C)C(=O)N[C@@H](CCCCN)C(=O)N[C@@H](CCC(=O)O)C(=O)N[C@@H](C)C(=O)N[C@@H](Cc1ccccc1)C(=O)N1CCC[C@H]1C(=O)N[C@@H](CC(=O)O)C(=O)N[C@@H](Cc1c[nH]c2ccccc12)C(=O)N[C@@H](C)C(=O)N[C@@H](CCCCN)C(=O)N[C@@H](C)C(=O)N[C@@H](C)C(=O)N[C@@H](Cc1ccc(O)cc1)C(=O)N[C@@H](CC(=O)O)C(=O)N[C@@H](CCCCN)C(=O)N[C@@H](C)C(=O)N[C@@H](C)C(=O)N[C@@H](CCC(=O)O)C(=O)N[C@@H](CCCCN)C(=O)N[C@@H](C)C(=O)N[C@@H](CCCCN)C(=O)N[C@@H](CCC(=O)O)C(=O)N[C@@H](C)C(=O)N[C@@H](C)C(=O)O` has an AUC(0-inf) of 3790 µg·h/mL (cynomolgus monkey female, plasma; intravenous infusion, 25 mg/kg every other day, day 27).
With `COC[C@@H](NC(C)=O)C(=O)NCc1ccc(OCc2ccc(OC(F)(F)F)cc2)cc1` the TD50 was 250 to 500 mg/kg (behavioural toxicity; rat; oral).
`CN(C)C(CNC(=O)Nc1cc(C(F)(F)F)ccc1N1CCOCC1)c1ccncc1` (stereo not drawn) gave a serum potassium of 5.7 mmol/L (mouse, serum; intraperitoneal, 240 mg/kg single dose).
`Nc1ccn(C[C@@H](CO)OCP(=O)(O)OCCCS(=O)(=O)CCCCCCCCCCCCCC2CCC2)c(=O)n1` gave an NOAEL of 30 mg/kg/day (uninfected mice; once daily dosing).
`COC(=O)C[C@](O)(CCCC(C)(C)OC(C)=O)C(=O)O[C@@H]1C(OC)=C[C@]23CCCN2CCc2cc4c(cc2[C@H]13)OCO4` gave a tissue concentration of 100 ng/mL (CD1 mouse, large intestine; oral, 1 mg/kg, 2 h).
The reduction potential of `CC(=O)[O][Cu+].CN1CCN2CCN(C)CCN(CC1)CC2` is reported as -0.893 V (cyclic voltammetry, item: Cu(II)/Cu(I); acetonitrile; 1 mM, copper acetate complex; baseline: SHE).
Under “intact drug in lungs”, `CCOP(=O)(OCC)OCCCCOC(=O)CC1=C(C)C(=Cc2ccc([S+](C)[O-])cc2)c2ccc(F)cc21` (stereo not drawn) is recorded as 43% (mice, lung; inhalation, 6.5 mg/kg; baseline: drug plus metabolites).
For `CC[C@H](C)[C@H](NC(=O)[C@H](Cc1ccc(O)cc1)NC(=O)[C@H](C)NC(=O)[C@H](CC(=O)O)NC(=O)[C@H](CC(C)C)NC(=O)[C@H](C)NC(=O)[C@H](C)NC(=O)[C@H](CCCCN)NC(=O)CNC(=O)[C@@H](NC(=O)[C@H](Cc1c[nH]cn1)NC(=O)[C@H](CCCCN)NC(=O)CNC(=O)[C@@H](NC(=O)[C@H](Cc1c[nH]cn1)NC(=O)[C@@H](NC(=O)[C@H](C)NC(=O)[C@H](CCCCN)NC(=O)[C@H](CCCCN)NC(=O)[C@@H](NC(=O)[C@H](Cc1c[nH]c2ccccc12)NC(=O)[C@H](CCCCN)NC(=O)[C@H](CCCNC(=N)N)NC(=O)[C@H](Cc1c[nH]c2ccccc12)NC(=O)CN)[C@@H](C)CC)[C@@H](C)O)C(C)C)[C@@H](C)CC)C(N)=O`, “acute toxic concentration” read 5 µg/mL (zebrafish embryos; 1 h, 4, 28, 52 hpf).
`CC(C)C[C@@H](N)C(=O)NCC(=O)N[C@H](C)C(=O)N[C@H](CO)C(=O)N[C@H](Cc1c[nH]c2ccccc12)C(=O)N[C@H](Cc1c[nH]cn1)C(=O)N[C@H](CCCNC(=N)N)C(=O)N1CCC[C@@H]1C(=O)N[C@H](CC(=O)O)C(=O)N[C@H](CCCCN)C(=O)N[C@H](CS)C(=O)N[C@H](CS)C(=O)N[C@H](CC(C)C)C(=O)NCC(=O)N[C@H](Cc1ccc(O)cc1)C(=O)N[C@H](CCC(N)=O)C(=O)N[C@H](CCCCN)C(=O)N[C@H](CCCNC(=N)N)C(=O)N1CCC[C@@H]1C(=O)N[C@H](CC(C)C)C(=O)N1CCC[C@@H]1C(N)=O` has a measured concentration of 5530 ± 433 ng/mL (LC-MS/MS; rat plasma; 5000 ng/mL, -80 to 25 °C, 3 freeze-thaw cycles).
With `COc1ccc(NC(=O)Cn2c(=O)c3ccccc3n(CC(=O)Nc3cc([125I])c(OC)cc3OC)c2=O)cc1` the tracer uptake was 0.36 %ID/g (rat, liver; intravenous, 30 min).
For `COc1cc(NC(=O)C(=O)c2c(C)n(Cc3ccc(Cl)cc3)c3ccc(C)cc23)ccn1`, the bioavailability was 14.3% (male cynomolgus monkey, plasma; oral, 10 mg/kg).
`CC[C@H](C)[C@H](NC(=O)[C@H](CC(N)=O)NC(=O)[C@H](CCCCN)NC(=O)[C@@H](NC(=O)[C@@H](N)CC(C)C)[C@@H](C)CC)C(=O)NCC(=O)N[C@H](C(=O)N[C@H](C(=O)N[C@H](C(=O)N[C@@H](CO)C(=O)N[C@@H](CCCCN)C(=O)N[C@H](C(=O)N[C@H](C(=O)N[C@@H](CCCCN)C(=O)N[C@H](C(=O)N[C@H](C(=O)N[C@@H](Cc1c[nH]c2ccccc12)C(=O)N[C@@H](CCCCN)C(=O)N[C@@H](Cc1ccccc1)C(=O)N[C@H](C(=O)N[C@@H](CC(=O)O)C(=O)N[C@@H](CC(=O)O)C(=O)O)[C@@H](C)O)C(C)C)[C@@H](C)O)[C@@H](C)CC)[C@@H](C)CC)C(C)C)[C@@H](C)CC)[C@@H](C)O` gave a fractional helicity of 0.55 (circular dichroism; POPC vesicles; pH 7.5).
For `O.[C-]#[O+].[C-]#[O+].[C-]#[O+].[Re+].c1ccc(-c2ccccn2)nc1`, the capacity factor was 3.3 (RP-HPLC C18 column, item: MeCN adduct; MeCN:water 40:60, 0.1% TFA; isocratic elution).
For `CC(C)[C@H](NC(=O)CNC(=O)[C@H](CCC(N)=O)NC(=O)[C@H](C)N)C(=O)O`, “discontinuation due to adverse events” read 0% (human; 30 mg/kg single dose).
`CC[C@H](C)C(=O)N1CCC(NC(=O)Nc2ccc(OC(F)(F)F)c(F)c2)CC1` — result for “subjects with insomnia TEAE”: 0% (healthy volunteers; oral, 16 mg single dose).
`c1ccc(C2(CCNC3CCC4(SCCS4)c4ccccc43)CCOC3(CCCC3)C2)nc1` (stereo not drawn) gave a clearance of 86.6 mL/min/kg (ICR mice, male, plasma; subcutaneous, 0.1 mg/kg).
With `C[C@H]1N=C(c2ccccc2F)c2cc(Br)ccc2-n2cnc(C(=O)NCCS(=O)(=O)O)c21` the cumulative excretion was 0.2 ± 0.04% (LC-MS/MS; Swiss Webster mouse, female, urine; oral, 750 µg parent drug, 0 to 24 h).
For `CC[C@@H]1C[C@]1(NC(=O)[C@@H]1C[C@@]2(CN1C(=O)[C@@H](NC(=O)[C@@H](NC(=O)[C@@H]1CCCCN1C(C)C)C1CCCCC1)C(C)(C)C)C(C)(C)C21CCC1)C(=O)NS(=O)(=O)N1CCCC1`, “subjects with adverse event” read 0% (item: vomiting; human fed; oral, 100 mg single dose).

Some of these lines once more:
For `O.[C-]#[O+].[C-]#[O+].[C-]#[O+].[Re+].c1ccc(-c2ccccn2)nc1`, the capacity factor was 3.3 (RP-HPLC C18 column, item: MeCN adduct; MeCN:water 40:60, 0.1% TFA; isocratic elution).
